Results collected from several papers.
Numbered parts are unrelated; each lists some results of a single study. Values joined by “and” are separate records of one study, mostly repeats; a detail may differ.

Set 1
Target: PABPC1L2, full length, GST fusion (mouse, UniProt A0ABA7IW68)
Method: RNAcompete
Form: RNA
Matrix: in vitro
Concentration: 20 nM
Notes: 7-mer, probes averaged, single round
Relative to: mean of 7-mers
Reading: higher = stronger binding
Residues (chain): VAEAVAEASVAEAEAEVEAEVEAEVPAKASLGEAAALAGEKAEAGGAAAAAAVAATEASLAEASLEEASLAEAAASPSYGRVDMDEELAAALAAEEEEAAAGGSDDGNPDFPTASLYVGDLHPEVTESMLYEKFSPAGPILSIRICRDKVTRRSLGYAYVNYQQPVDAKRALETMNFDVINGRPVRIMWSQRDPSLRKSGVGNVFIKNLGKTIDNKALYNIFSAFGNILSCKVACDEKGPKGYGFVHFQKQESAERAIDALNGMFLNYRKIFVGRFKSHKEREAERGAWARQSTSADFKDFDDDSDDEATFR
| Oligonucleotide | 7-mer Z-score |
| --- | --- |
| CUCCCCG | -0.434 |
| AAAGAUU | 1.85 |
| GUUGUCU | -0.365 |
| UUCUAAU | -0.354 |
| UCUGUGA | -0.311 |
| CUGCCCU | -0.38 |
| UCAGUAU | -0.177 |
| UUCACGA | -0.255 |

Set 2
Target: Interferon regulatory factor 5, full length, phosphomimetic (IRF5, Homo sapiens, UniProt Q13568-2, residues 1-514, S451D/S453D/S456D/S462D)
Method: protein-binding microarray
Form: double-stranded DNA, one strand shown
Matrix: in vitro
Concentration: 940 nM top
Notes: 60-bp whole probe
With: salmon DNA 0.4 mg/ml
Relative to: random background probes
Reading: higher = stronger binding
Shared flanks, not repeated: GCCTAGCAC … GTCTTGATTCGCTTGACGCTGCTG
| Oligonucleotide | fitted relative affinity |
| --- | --- |
| GAAGGTATCCTTCTCCTGACGTGCTAG | 0.22 z-score |
| GAGATGATCCAGTTTTACCTGGTGCTA | -0.0162 z-score |
| TTAGGACTGGGTTTCGGTTAGTGCTAG | 6.63 z-score |
| TCAGAGCTCCTCCTTCTCACTGTGCTA | -0.225 z-score |
| TTAGGTATCGACACTGCGTTAGTGCTA | 4.71 z-score |
| TTAGATTTTGGGTTTCGATTAGTGCTA | 6.49 z-score |
| TTAGGTTTCGACATTCGGTTAGTGCTA | 8.16 z-score |
| GACGAACTGGGGACTGGTGACGTGCTA | 0.0895 z-score |

Set 3
Target: RNA binding protein fox-1 homolog 2, RRM domain, GST-SBP tag (RBFOX2, Homo sapiens, UniProt O43251-10, residues 100-194)
Method: RNA Bind-n-Seq
Form: RNA
Matrix: in vitro
Concentration: 365 nM
Notes: natural RNA segment, single round, ends assumed
Relative to: no-protein control
Reading: higher = stronger binding
Target sequence (chain): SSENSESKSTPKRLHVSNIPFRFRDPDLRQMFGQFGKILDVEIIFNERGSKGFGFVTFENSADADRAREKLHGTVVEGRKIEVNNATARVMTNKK
| Oligonucleotide | RBNS enrichment (R) |
| --- | --- |
| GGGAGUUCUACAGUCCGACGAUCCUCUCCUCCCAGUCCCACCCCUUGCCCCACGGAGUCCUGGGGACGCAGUGCCCCAGCUGGGAAGAGGGCGGGAUCGGGCACUGGUUCCUCCUUGUCCCCGCUUUCUUGGGUGGAAUUCUCGGGUGCCAA | 0.375 |
| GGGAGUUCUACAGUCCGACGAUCGUAAGUUACCUAGCUCUACCUGACUGUGGAUAAAAGACAGUGCUCUACCCACCUGGUGGACCCAGGGACUGAAGCAAUGGCACAGAGACCAUGACAGACUGUGCUCCUAUUGGAAUUCUCGGGUGCCAA | 0.316 |
| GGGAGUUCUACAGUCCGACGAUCGGAAAGUGCCUGGGCUGUGCUUGUGACCGGCAGUACAGUGCCAUCCUGGAGGUGACUGGAGUAGCUGCUUUGCCAUUUCAUCACUGGGAUUCUGAACAGGCGCCAAGCUAUGGAAUUCUCGGGUGCCAA | 1.01 |
| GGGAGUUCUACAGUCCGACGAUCCCAUGAUUGCGCCACUGCACUCAGCCCGGGUGACAAAGCAAGACCCUGUCUCAGAAAAAAAGAAAAUUCAAGGCCAGUUAAGACAAAAUGCUAUGACUUUGAAAUUCACAUGGAAUUCUCGGGUGCCAA | 0.462 |
| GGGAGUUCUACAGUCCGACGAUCUCUUCCUGUUUAUGAUUAACUCUGGAUACCUGGGCAGGUGGGGCAGAGUGGGCAGGGAAGUGGCUUCAGCCCCUGAGACCCAGAAUAAUAACUAAUCAGCUAGUGUUGUGUGGAAUUCUCGGGUGCCAA | 1.6 |
| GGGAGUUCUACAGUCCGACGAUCUCUGCAGGCUGCUUGUAGGACUGUUCACCAAGGGGGAUACCAGCAGCAAGAGAGUGCACCCGUUUAGCCCUGGACCCUGUUUCUUACUGUGUGACUUGGCUAGAGUUGGGUGGAAUUCUCGGGUGCCAA | 1.02 |
| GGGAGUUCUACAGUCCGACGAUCGAAUCACUUUUGUGUUUGAUAUAGUAAAACAAUGUGAUUCAUUCCAAAGUAACAGAAGGUUAUUUGUAAGAAAGUUAAAGGCUUGUGAACAAAGAAAGCUAAGCUGUUGUUGGAAUUCUCGGGUGCCAA | 0.425 |
| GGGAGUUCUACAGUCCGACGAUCACAUAACUUCCCCGGACUGUUCCAAUCUGAUAAUUUGUAAAUGCUUUAGAGUUUUUUUAAUUAACACUUGUGUUGCUAAAUUCUAUUUAUGUAAGUCUGCUAAAGUUUUUUGGAAUUCUCGGGUGCCAA | 0.764 |

Further values, each from its own experiment
| Structure (SMILES) | cell line | test | system | setting | how to read | measurement | value |
| --- | --- | --- | --- | --- | --- | --- | --- |
| CO[C@@H](C)c1c(Nc2ccc([C@H](N(C)C(=O)C3CCS(=O)(=O)CC3)C(F)(F)F)cc2)cnc2cc(Cl)nn12 | normal organoid sample H | CellTiter-Glo | human, normal-adjacent epithelium | 1 µM | relative to: DMSO | viability | 93.1% and 84.8% |

Some of these lines once more (set 3):
| Oligonucleotide | RBNS enrichment (R) |
| --- | --- |
| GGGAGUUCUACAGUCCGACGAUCCCAUGAUUGCGCCACUGCACUCAGCCCGGGUGACAAAGCAAGACCCUGUCUCAGAAAAAAAGAAAAUUCAAGGCCAGUUAAGACAAAAUGCUAUGACUUUGAAAUUCACAUGGAAUUCUCGGGUGCCAA | 0.462 |
| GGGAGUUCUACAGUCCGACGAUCUCUUCCUGUUUAUGAUUAACUCUGGAUACCUGGGCAGGUGGGGCAGAGUGGGCAGGGAAGUGGCUUCAGCCCCUGAGACCCAGAAUAAUAACUAAUCAGCUAGUGUUGUGUGGAAUUCUCGGGUGCCAA | 1.6 |
